Measurements collected from several papers.
Each line is one published result; not all experiments were run side by side. Several values in a cell are separate wells, animals, samples, runs or records. pIC50: −log10 of the molar value.
Cell line: UACC-62

SMILES	test	conditions	scale	measurement	result
O=c1ccn(Cc2cn(-c3c4ccccc4nc4ccccc34)nn2)c(=O)[nH]1	NCI60 single-dose screen	10 µM		growth percentage	91.4%
COc1ccc(OC)c(-c2nc3ccc(-c4nc5ccc(N6CCN(C)CC6)cc5[nH]4)cc3[nH]2)c1	SRB	10 µM, 48 h		growth percent	104%
O=C(Nc1nnc2n3c(nc(-c4ccc(Cl)cc4)c1-2)SCC3=O)c1ccccc1	SRB	10 µM, NCI60 single-dose screen	relative to: untreated	cell growth	99.1%
C#C[C@@]1(O)[C@@H](CO)O[C@@H](n2cc(F)c3c(N)ncnc32)[C@@H]1O	SRB	NCI-60 screen		TGI	1.47 µM
Cc1cc(=O)[nH]c(=O)n1Cc1cn(-c2c3ccccc3nc3ccccc23)nn1	NCI60 single-dose screen	10 µM		growth percentage	85.2%
COC(=O)/C=C1\C(=O)C=C2C3CC4CC(CCC4(C)N21)C3(C)NC(C)=O (centres unmarked)	cell growth	NCI screen		pIC50	4.74
Cn1cncc1C1=CN(c2ncnc3[nH]cnc23)CCS1		melanoma cell line		GI50	9.8 µM
CCOC(=O)CSc1nc(-c2ccc(Cl)cc2)c2c(NC(=O)c3ccccc3)nnc-2[nH]1	SRB	10 µM, NCI60 single-dose screen	relative to: untreated	cell growth	92.4%
C#C[C@@]1(O)[C@@H](CO)O[C@@H](n2cc(I)c3c(N)ncnc32)[C@@H]1O	SRB	NCI-60 screen		TGI	2.38 µM and 3.23 µM
CCCN1CCN(c2ccc3nc(-c4ccc5nc(-c6cc(OC)ccc6OC)[nH]c5c4)[nH]c3c2)CC1	SRB	10 µM, 48 h		growth percent	110%
CCCC(CCC)C(=O)OCc1cn(-c2c3ccccc3nc3ccccc23)nn1	NCI60 single-dose screen	10 µM		growth percentage	87.7%
CCCCN1CCN(c2ccc3nc(-c4ccc5nc(-c6cc(OC)ccc6OC)[nH]c5c4)[nH]c3c2)CC1	SRB	10 µM, 48 h		growth percent	109%
O=C1NC(c2ccccc2)(c2ccccc2)C(=O)N1Cc1cn(-c2cc3ccccc3oc2=O)nn1	NCI60 single-dose screen	10 µM		growth percentage	79.3%
CCCCN1CCN(c2ccc3[nH]c(-c4ccc5[nH]c(-c6ccc(OCC)cc6)nc5c4)nc3c2)CC1	SRB	10 µM, 48 h		growth percent	59.9%
NNc1nc(-c2ccc(Cl)cc2)c2c(NC(=O)c3ccccc3)nnc-2[nH]1	SRB	10 µM, NCI60 single-dose screen	relative to: untreated	cell growth	102%
CCOc1ccc(-c2nc3cc(-c4nc5cc(N6CCN(C)CC6)ccc5[nH]4)ccc3[nH]2)cc1OCC	SRB	10 µM, 48 h		growth percent	-14.3%
O=C(Nc1nnc2[nH]c(=S)[nH]c(-c3ccc(Cl)cc3)c1-2)c1ccccc1	SRB	10 µM, NCI60 single-dose screen	relative to: untreated	cell growth	101%
CCCCN1CCN(c2ccc3[nH]c(-c4ccc5[nH]c(-c6ccc(OCC)c(OCC)c6)nc5c4)nc3c2)CC1	SRB	10 µM, 48 h		growth percent	17.7%
C#C[C@@]1(O)[C@@H](CO)O[C@@H](n2cc(Br)c3c(N)ncnc32)[C@@H]1O	SRB	NCI-60 screen		TGI	11.8 µM and 12.9 µM
CSc1nc(-c2ccc(Cl)cc2)c2c(NC(=O)c3ccccc3)nnc-2[nH]1	SRB	10 µM, NCI60 single-dose screen	relative to: untreated	cell growth	94.2%

A few entries again:
SMILES	test	conditions	scale	measurement	result
Cn1cncc1C1=CN(c2ncnc3[nH]cnc23)CCS1		melanoma cell line		GI50	9.8 µM
